Measured values from different studies.
Every numbered part comes from another study and shows a few of its results, in no order.

Series 1
Target: Ras GTPase-activating protein-binding protein 1, full length (G3BP1, Homo sapiens, UniProt Q13283)
Chain of UniProt Q13283 (whole entry, looked up): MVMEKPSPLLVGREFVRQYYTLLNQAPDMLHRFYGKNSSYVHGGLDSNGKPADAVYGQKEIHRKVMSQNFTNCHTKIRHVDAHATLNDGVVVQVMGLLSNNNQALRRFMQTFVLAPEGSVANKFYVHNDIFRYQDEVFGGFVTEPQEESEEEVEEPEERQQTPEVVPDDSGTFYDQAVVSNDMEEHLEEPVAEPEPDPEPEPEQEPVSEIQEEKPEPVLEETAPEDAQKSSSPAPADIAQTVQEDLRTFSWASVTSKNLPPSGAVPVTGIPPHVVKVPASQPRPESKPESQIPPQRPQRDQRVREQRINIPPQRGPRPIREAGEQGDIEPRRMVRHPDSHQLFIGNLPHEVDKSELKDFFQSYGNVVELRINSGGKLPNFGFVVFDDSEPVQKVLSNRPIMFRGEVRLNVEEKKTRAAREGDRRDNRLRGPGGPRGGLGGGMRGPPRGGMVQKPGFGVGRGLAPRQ
Technique: RNA Bind-n-Seq
Form: RNA
Sample: in vitro
Tested at: 200 nM
Notes: whole 134-nt RNA, ends assumed
With: 150 mM LiCl
Relative to: input library
Direction: higher = stronger binding
Each molecule: 7-deaza-guanosine replaces G
Constant ends, left off below: GGGAGUUCUACAGUCCGACGAUC … UGGAAUUCUCGGGUGUCAAGG
| Sequence | log2 enrichment |
| --- | --- |
| GCAGGAAGUAAAAACAAAUGGAAAUGCUUCGGAUAGUGGCAGGGGUGGGGGUUGGUAAGGAAAGGGUGGGAUGGGAGUGGGUAAAGAGUU | 0.111 |
| CUCAAGUCCUGUGCUACACAUCGUAUGUACCGAAUCGGGCCGGCCGGGCCGGGGAAAGUAUUAUGUUACGCCGUUCGGAUCUGCACUUCC | 0.466 |
| CUGUGCUACACAUCGUAUGUACCGAAUCGGUUUUUUUGGGGUUUUUUUGGGUUUUUUUGGGGAAAGUAUUAUGUUACGCCGUUCGGAUCU | 1.58 |
| ACCAUGCAGGUGGGCAUCUUUGGGAAGUGUGGCAAGGGGGGGAUAGGGAGGGGGGUAACACUUUGGGAACAGGUGGUCCCAGGUCGUUUC | 0.411 |
| CACAGACAACACGCACCCACACAGACACAGAGGGAAGGGGUUGGGAUGGGGACAGGGUGCACAGCAGGGCGGGGAAAGACCCCAGCCCCU | 1.24 |
| UCGUUCCCCCCGCCACGAGAAGAAGAAGAAGGUCCGUAAAUACUGGGACGUGCCACCCCCAGGCUUUGAGCACAUCACCCCAAUGCAGUA | 0.0227 |
| GCAGGAAGUAAAAACAAAUGGAAAUGCUUCGGAUAGUGGCAGGGGUGGGGGUUCCUAAGGAAAGGGUGGGAUGGGAGUGGGUAAAGAGUU | -0.111 |
| CACAGACAACACGCACCCACACAGACACAGAGGGAAGGGGUUGGGAUGGGGACAGGGUGCACAGCAGGGCGGGGUAAGACCCCAGCCCCU | 1.04 |

Series 2
Target: UBE2S UBC core domain (UniProt Q16763)
Technique: yeast two-hybrid
Sample: yeast
Notes: mostly zero background
Relative to: not given
Direction: higher = stronger interaction
B1: ARK2C RING domain (UniProt Q6ZSG1); chain EGEESDTDEKCTICLSMLEDGEDVRRLPCMHLFHQLCVDQWLAMSKKCPICRVDIETQLGAD
B2: IRF2BPL RING domain (UniProt Q9H1B7); chain SPMANSGPLCCTICHERLEDTHFVQCPSVPSHKFCFPCSRESIKAQGATGEVYCPSGEKCPLVGSNVP
Construct (chain): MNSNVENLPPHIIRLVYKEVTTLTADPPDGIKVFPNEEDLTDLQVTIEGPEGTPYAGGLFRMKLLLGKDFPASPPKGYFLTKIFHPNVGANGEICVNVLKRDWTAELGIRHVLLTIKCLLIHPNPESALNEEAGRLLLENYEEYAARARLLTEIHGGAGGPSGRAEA
| Molecule | lacZ reporter activity |
| --- | --- |
| B1 (ARK2C RING domain) | 0 |
| EDEVSDNSAECVVCLSDVRDTLILPCRHLCLCNTCADTLRYQANNCPICRLPFRALLQIR (RNF157 RING domain (UniProt Q96PX1)) | 0 |
| RLTMMWEEVTCPICLDPFVEPVSIECGHSFCQECISQVGKGGGSVCPVCRQRFLLKNLRP (TRIM21 RING domain (UniProt P19474)) | 0 |
| QHHELTSLFECPVCFDYVLPPILQCQAGHLVCNQCRQKLSCCPTCRGALTPSIRNL (SIAH2 RING domain (UniProt O43255)) | 0 |
| PEELQAMDNVCIICREEMVTGAKRLPCNHIFHTSCLRSWFQRQQTCPTCRMDVLRASLPA (SYVN1 RING domain (UniProt Q86TM6)) | 0 |
| QLRRLQEERTCKVCMDKEVSIVFIPCGHLVVCKDCAPSLRKCPICRSTIKGTVRTF (BIRC3 RING domain (UniProt Q13489)) | 0 |
| DAIPSLSECQCGICMEILVEPVTLPCNHTLCKPCFQSTVEKASLCCPFCRRRVSSWTRYH (RNF168 RING domain (UniProt Q8IYW5)) | 0 |
| B2 (IRF2BPL RING domain) | 0 |

Series 3
Target: Interferon regulatory factor 7, full length, phosphomimetic (IRF7, Homo sapiens, UniProt Q92985, residues 1-503, S471D/S472D/S475D/S476D/S477D/S483D/S484D/S487D)
Chain of UniProt Q92985 (whole entry, unmodified, looked up): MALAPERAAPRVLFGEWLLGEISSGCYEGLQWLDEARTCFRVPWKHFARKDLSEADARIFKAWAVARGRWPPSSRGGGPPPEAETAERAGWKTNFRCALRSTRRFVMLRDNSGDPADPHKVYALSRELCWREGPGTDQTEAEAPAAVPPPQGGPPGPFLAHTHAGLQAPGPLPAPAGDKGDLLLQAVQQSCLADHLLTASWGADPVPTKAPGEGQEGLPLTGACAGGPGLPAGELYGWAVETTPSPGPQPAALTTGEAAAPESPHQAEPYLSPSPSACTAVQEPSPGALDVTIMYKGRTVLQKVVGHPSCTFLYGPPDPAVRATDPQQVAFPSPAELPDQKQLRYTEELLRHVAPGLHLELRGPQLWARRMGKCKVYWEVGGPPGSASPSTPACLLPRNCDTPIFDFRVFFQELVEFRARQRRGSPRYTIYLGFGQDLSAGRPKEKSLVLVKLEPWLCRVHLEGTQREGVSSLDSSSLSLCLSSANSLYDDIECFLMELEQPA
Technique: protein-binding microarray
Form: double-stranded DNA, one strand shown
Sample: in vitro
Tested at: 2200 nM top
Notes: 60-bp whole probe
With: salmon DNA 0.4 mg/ml
Relative to: random background probes
Direction: higher = stronger binding
Constant ends, left off below: GCCTAGCAC … GTCTTGATTCGCTTGACGCTGCTG
| Sequence | fitted relative affinity [z-score] |
| --- | --- |
| TTCGATTTCAGTTCCGATTAGTGCTAG | 3.38 |
| TTCTACTTCTCTTTTTGCTTGTGCTAG | 2.65 |
| TACGATATCGGGTTTCGAGACGTGCTA | 1.84 |
| GACGGTATCGGTTGCGGGACGTGCTAG | 0.276 |
| TTAGGTCTCGGGCTCGGTTAGTGCTAG | -0.142 |
| GACGATTTCTGTTCCGAGACGTGCTAG | 2.87 |
| TTAGGTATTGGTTTCGGTTAGTGCTAG | 6.48 |
| GAGGAACTGGGGACTGGAGACGTGCTA | -0.706 |
| TTAGGTATCGGACTGGTTTAGTGCTAG | 0.249 |
| TCATGCTTCTGTATGGGACTGTGCTAG | 0.806 |
| TTAGATATCGGGTTTCGTTTAGTGCTA | 3.61 |
| GACGGACTGCGTTTCGGGACGTGCTAG | 0.86 |
| GACGGACTTGACTATCGGGACGTGCTA | -0.314 |
| GCCGATATCAGTTTCGAGACGTGCTAG | 3.96 |

Series 4
Target: RNA binding protein fox-1 homolog 2, RRM domain, GST-SBP tag (RBFOX2, Homo sapiens, UniProt O43251-10, residues 100-194)
Technique: RNA Bind-n-Seq
Form: RNA
Sample: in vitro
Tested at: 365 nM
Notes: natural RNA segment, single round, ends assumed
Relative to: no-protein control
Direction: higher = stronger binding
Constant ends, left off below: GGGAGUUCUACAGUCCGACGAUC … UGGAAUUCUCGGGUGCCAA
Construct (chain): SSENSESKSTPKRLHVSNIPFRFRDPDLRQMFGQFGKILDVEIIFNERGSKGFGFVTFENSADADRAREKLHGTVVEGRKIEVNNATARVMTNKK
| Sequence | RBNS enrichment (R) |
| --- | --- |
| UCCAACCUGAUUAGUGCAUGGUCAGCCCUCAAUGAAGGCUGAGGCAUCUCUGACUGAGGUGUUUUUGUUUGGUUUUGUUUUUUAAAAUCAUGUAUUUGCUACAAAGUAUU | 2.6 |
| GGAGUUACAGGCAAGUUUGGUAAAAGUUAAGCUAGUAUCAUAGUCAUUUAAAAUUGUAAUAGAUCUUAACCAUUUUCCCCCUCACCCUAACUCUCUUAUUCUGCCGCCAC | 0.326 |
| GCCCACUGAAGCAGAAGGUUUUUCUCUGGGGGAACCUGUCUCAGUGUUGACUGCAUUGUUGUAGUCUUCCCAAAGUUUGCCCUAUUUUUAAAUUCAUUAUUUUUGUGACA | 0.611 |
| GCUUGCAAUAUGAACCUUGGAAACUCAUAUAGCUGGGUGUUUGUUGAAGACUCUGCAUCUCACUGAAAAUAUCAGAAUAUUCAUGUAUUUUCCUUGUCCUUGAGUUUUCC | 0.274 |
| AAAAUUCCUAGAUCCUAGGAAUUCAGUGAGACCCUGGGAAGGACCAGCAUGCUAAUCAGUGUCAGUGAAUCCACAGUCUUUACUUCCUGCCUCAUAAAGGGCCAGGUCUC | 7.14 |
| GAUGUUCAAUCAAUCAGUCACUGUGUCCCAGACAUAUUCAAUAAACACAGAUUGGUACCACCCAGCACGAGGUGUGUGAGGGUCUGUAGUGCGACUGCUGUGGUGCCCAG | 2.1 |
| GGGCAAAAAGCUUUAUAUUUAUUUGAUUAUCCAAAAUACAGAUCAAAGUUUAGAUCUACAUUCUUCAUUGUAUUUGCUGUUUCUUAAUUGGGCACACACAACUCCUGGUC | 0.504 |
| CACCUACUAUAACAUCCAUGUGUGUUUGGAUAAAGACCUCUUAGAACCAUGGAGAAAUUAACUCAGUUAAUUUAAGACUUUGUUUGGUUUUUUUUUUUUAAGUUUAGUUU | 0.803 |
| CUCAAGAUGUGUCAUUUUCAGACAUUCUUCAUGUCAGAAGAGCUUUUGUUGUAAGGAGAAAACCAGCUCAGACUUUUGUCCCUGUAGGUGAUGGUAGUGGUCAGAAAUGG | 0.478 |
| ACUGUGCUUCUUACUUACUGAUAUCCAGUAACUGGCACUUACUAGGUCUUCAUGAAUGUUUCCUGAGUAAAGGAAGGAGACCAGCAGCUAACCUUAGUUAGAGCCUACCU | 1.87 |
| UGUGCAUGUAGAACACAAGAAGACCCUUUUCUUCUGGAUCCUCUGCUAGCUACCAUCUAAACUGUCCCAUUUUGACCCCUUUCUCCCCAUUAAGCCCUCUACGCUUGGCC | 1.26 |
| AAGGUCCUGUGCUGAUGGAGGCAUGACAGUCCUCUCGCAGCCUGAGGAGGGUUUUGUUCUGUCUGUGUCGCCUCUCCGCCGCACAGAAUCGAUGUGUGUGAUAUUCAGAG | 1.46 |

Series 5
Target: Prothrombin, mature alpha-thrombin (F2, Homo sapiens, UniProt P00734)
Technique: aptamer microarray, sandwich
Form: DNA with 2'F-ANA
Sample: in vitro
Tested at: 200 nM
Notes: whole 15-mer aptamer, many near background
With: Cy3 exosite-II aptamer, 400 nM
Direction: higher = stronger binding
Sequence: GGTTGGTGTGGTTGG
| Modification | mean fluorescence intensity |
| --- | --- |
| 2'F-ANA at 1 4 5 6 7 9 10 12 13 | 74 a.u. |
| 2'F-ANA at 1 3 10 14 | 57.1 a.u. |
| 2'F-ANA at 1 3 5 6 8 14 | 42.3 a.u. |
| 2'F-ANA at 4 5 10 14 | 79.4 a.u. |
| 2'F-ANA at 1 4 6 7 8 9 10 11 12 13 15 | 70.4 a.u. |
| 2'F-ANA at 3 9 10 12 14 | 480 a.u. |
| 2'F-ANA at 1 3 7 9 10 14 15 | 59.9 a.u. |
| 2'F-ANA at 3 4 6 7 10 11 12 | 298 a.u. |
| 2'F-ANA at 1 2 3 4 5 6 10 11 15 | 51.1 a.u. |
| 2'F-ANA at 1 2 3 9 13 | 147 a.u. |

Excerpt of the above (series 3):
| Sequence | fitted relative affinity [z-score] |
| --- | --- |
| TTCTACTTCTCTTTTTGCTTGTGCTAG | 2.65 |
| TACGATATCGGGTTTCGAGACGTGCTA | 1.84 |
| GACGGTATCGGTTGCGGGACGTGCTAG | 0.276 |
